Assay results of several laboratories.
Numbers after ± are the reported error. ≈ marks a conversion by molar mass, not a printed value.

Compound | target or system | test | system | setting | scale | endpoint | value
CC[C@H](C)[C@H](NC(=O)[C@H](CC(C)C)NC(=O)[C@H](Cc1c[nH]c2ccccc12)NC(=O)[C@H](CCC(N)=O)NC(=O)[C@@H](NC(=O)[C@H](Cc1ccccc1)NC(=O)[C@H](C)NC(=O)[C@H](CCCCNC(=O)COCCOCCNC(=O)COCCOCCNC(=O)CC[C@H](NC(=O)CCCCCCCCCCCCCCCCCCC(=O)O)C(=O)O)NC(=O)[C@H](CCC(N)=O)NC(=O)[C@H](C)NC(=O)[C@@H](NC(=O)[C@H](CCCCN)NC(=O)[C@H](CC(=O)O)NC(=O)[C@H](CC(C)C)NC(=O)C(C)(C)NC(=O)[C@@H](NC(=O)[C@H](CO)NC(=O)[C@H](Cc1ccc(O)cc1)NC(=O)[C@H](CC(=O)O)NC(=O)[C@H](CO)NC(=O)[C@@H](NC(=O)[C@H](Cc1ccccc1)NC(=O)[C@@H](NC(=O)CNC(=O)[C@H](CCC(=O)O)NC(=O)C(C)(C)NC(=O)[C@@H](N)Cc1ccc(O)cc1)[C@@H](C)O)[C@@H](C)O)[C@@H](C)CC)[C@@H](C)CC)C(C)C)C(=O)N[C@@H](C)C(=O)NCC(=O)NCC(=O)N1CCC[C@H]1C(=O)N[C@@H](CO)C(=O)N[C@@H](CO)C(=O)NCC(=O)N[C@@H](C)C(=O)N1CCC[C@H]1C(=O)N1CCC[C@H]1C(=O)N1CCC[C@H]1C(=O)N[C@@H](CO)C(N)=O | – | item: anti-drug antibodies | patients with type 2 diabetes | 5/5/10/10 mg escalating, post-baseline | – | subjects with treatment-emergent ADA | 8.3%
Cn1c(Cn2ccc(C(F)(F)F)c(Oc3cc(Cl)cc(C#N)c3)c2=O)n[nH]c1=O | HIV-1 | viral replication, single-round infection | RT mutant M184V | – | – | EC50 | 0.7 ± 0.01 nM
CNc1nc(N)ncc1-c1cn([C@@H]2O[C@H](CO)[C@@H](O)[C@@]2(C)F)cn1 | Dengue virus 2 | – | – | concentration not given | – | antiviral activity | inactive
Cc1cc(/C=C/C#N)cc(C)c1-n1cnc2cnc(Nc3ccc(/C=C/C#N)cc3)nc21 | HIV-1 | viral replication, single-round infection | RT mutant K101E/M184V | – | – | EC50 | < 5 nM
NC(=O)CCNC(=O)c1ccccc1S | HIV-1 | viral replication | human PBMC, subtype A 92RW020, CCR5-tropic clinical isolate | – | – | EC50 | 1440 ± 180 nM
CC[C@H](C)[C@H](N)C(=O)N[C@@H](Cc1c[nH]c2ccccc12)C(=O)N[C@@H](CC(C)C)C(=O)N[C@H](C(=O)N[C@@H](C)C(=O)N[C@@H](CC(C)C)C(=O)N[C@@H](CCCCN)C(=O)N[C@@H](Cc1ccccc1)C(=O)N[C@@H](CC(C)C)C(=O)NCC(=O)N[C@@H](CCCCN)C(=O)N[C@@H](Cc1c[nH]cn1)C(=O)N[C@@H](C)C(=O)N[C@@H](C)C(=O)N[C@@H](CCCCN)C(=O)N[C@@H](Cc1c[nH]cn1)C(=O)N[C@@H](CC(C)C)C(=O)N[C@@H](C)C(=O)N[C@@H](CCCCN)C(=O)N[C@@H](CCC(N)=O)C(=O)N[C@@H](CCC(N)=O)C(=O)N[C@@H](CC(C)C)C(=O)N[C@@H](CO)C(=O)N[C@@H](CCCCN)C(=O)N[C@@H](CC(C)C)C(=O)O)[C@@H](C)O | Bacillus subtilis | broth microdilution | 168 | – | – | MIC | 6.25 µM (≈ 17.8 µg/mL)
CNC(=O)[C@@H](NC(=O)[C@H](CC(C)C)[C@H](O)C(=O)NO)C(C)(C)C | Daboia russelii venom proteases (SVMP) | protease activity, inhibitor | KL population | 10 µM, added: azocasein substrate | baseline: venom alone | remaining activity | 0%
Cc1cc(/C=C/C#N)cc(C)c1Nc1ccnc(Nc2ccc(C#N)cc2)n1 | HIV-1 | viral replication, single-round infection | RT mutant Y181I | – | – | EC50 | 8.8 ± 0.1 nM
CC(C)OC(=O)OCOP(=O)(CO[C@H](C)Cn1cnc2c(N)ncnc21)OCOC(=O)OC(C)C | HIV-1 M184V | – | MT4 | – | – | IC50 | 423 ± 113 nM
Cc1cc(/C=C/C#N)cc(C)c1-n1cnc2cnc(Nc3ccc4cc(C#N)ccc4c3)nc21 | HIV-1 | viral replication, single-round infection | RT mutant G190S | – | – | EC50 | ≤ 2.1 nM
CNc1nc(N)nc2c1ncn2[C@H]1C[C@H](O)[C@](CO)(CF)O1 | HIV-1 M184V | MTT | MT4 | – | – | IC50 | > 1000 nM
Cc1cn([C@H]2C[C@H](N=[N+]=[N-])[C@@H](CO)O2)c(=O)[nH]c1=O | HIV-1 | viral replication | human PBMC, subtype E 93TH051, CCR5-tropic clinical isolate | – | – | EC50 | 7.09 ± 5.25 nM
COc1ccccc1CC(=O)Nc1ccccc1Sc1ccc([N+](=O)[O-])cc1 | HIV-1 | viral replication, item: RT activity | H9 expressing A3G, LAI, X4-tropic wild type | day 7 | – | IC50 | 5200 nM
O=C1Nc2ccc(Cl)cc2[C@@](C#CC2CC2)(C(F)(F)F)O1 | HIV-1 | viral replication, single-round infection | RT mutant K101E/M184V | – | – | EC50 | 1.5 ± 0.2 nM
Nc1ncnc2c([C@@H]3N[C@H](CO)[C@@H](O)[C@H]3O)c[nH]c12 | Western equine encephalitis virus | viral replication, inhibitor | Vero 76 | 29.6 µM | – | inhibition | 78.5%
C[C@]1(CO)O[C@@H](n2cnc3c(=O)[nH]c(N)nc32)C[C@@H]1O | HIV-1 M184V | – | MT4 | – | – | IC50 | > 1000 nM
N#CC(C#N)=NNc1cccc(Cl)c1 | Escherichia coli | tetracycline MIC, checkerboard | tetracycline-resistant (pBR322) | 21 µM, added: tetracycline | baseline: MIC alone over combination | fold enhancement | 2 fold
CCCC(=O)OCSc1ccccc1C(=O)NCCC(N)=O | HIV-1 | viral replication | human PBMC, subtype A 92RW020, CCR5-tropic clinical isolate | – | – | EC50 | 870 ± 880 nM
C#C[C@]1(CO)O[C@@H](n2cnc3c(N)nc(F)nc32)C[C@@H]1O | HIV-1 T215F | – | MT4 | – | – | IC50 | 2.3 ± 0.01 nM
Cn1cnc(Cn2c(=O)[nH]/c(=N\c3cc4cn(C)nc4cc3Cl)n(Cc3cc(F)c(F)cc3F)c2=O)n1 | – | – | human, moderate renal impairment | oral, 375 mg, treatment-related decreased GFR, Moderate severity | – | patients with adverse event | 12.5%
CN(C)c1ccc(-c2nc(-c3cccs3)c(-c3cccs3)[nH]2)cc1 | SARS-CoV-2 | cytopathic effect | USA_WA1/2020 | round 1, 5-point | – | maximum response | 41.1%
Nc1ccn([C@H]2C[C@H](O)[C@](CO)(CF)O2)c(=O)n1 | HIV-1 T215F | – | MT4 | – | – | IC50 | 24.3 ± 15.5 nM
Cc1ncccc1-c1nc2cc(C(=O)NCCCc3ccccc3)ccc2o1 | SARS-CoV-2 | cytopathic effect | USA_WA1/2020 | retest, 8-point, duplicates | – | maximum response | 38.2%
Nc1nc(F)nc2c1ncn2[C@H]1C[C@H](O)[C@](CO)(CF)O1 | HIV-1 K65R | MTT | MT4 | – | – | IC50 | 110 ± 7 nM

Repeated from above:
Compound | target or system | test | system | setting | scale | endpoint | value
Cc1ncccc1-c1nc2cc(C(=O)NCCCc3ccccc3)ccc2o1 | SARS-CoV-2 | cytopathic effect | USA_WA1/2020 | retest, 8-point, duplicates | – | maximum response | 38.2%
Cc1cn([C@H]2C[C@H](N=[N+]=[N-])[C@@H](CO)O2)c(=O)[nH]c1=O | HIV-1 | viral replication | human PBMC, subtype E 93TH051, CCR5-tropic clinical isolate | – | – | EC50 | 7.09 ± 5.25 nM
